# Results from different studies.
# Lines come from different studies, so protocols differ. ± marks the error that the study gave.
# HLA class I histocompatibility antigen, A alpha chain allele A*01:01: HLA class I histocompatibility antigen, A alpha chain, allele A*01:01 (Homo sapiens, UniProt P04439)
# B1: enzyme (Ectocarpus siliculosus, UniProt D7FYY3); chain KTASLATVSSLGIDKATGITKPSTVHHNLPYPQVFEHETKNKEGESTANGTFCVSTGQFTGRSPKDKYFVQQAPSDKTLDWGKINVGVAPKVFENIYNKAVKHYNDNVDSMYVFDGYCGTSPKSRKNVRIITELAWQHHFAKNMFIRPETEAETAGFKPDFTIINACKVVNDDYKELGLNSEVAVVFNVEERKAVITGTWYGGEMKKGIFSMMNYWLPLDGVMAMHCSANKGKNGDTALFFGLSGTGKTTLSADPERYLIGDDEHGWDDDGIFNFEGGCYAKTINLSHENEPEIYDAIKRDALLENVVIKDNGEPDYTDVSKTENTRVSYPIYHIDNYEPSGMGGHPNSVIFLTCDAFGILPPVSRLSAGQAMYHFLSGYTAKVAGTERGVTEPTPNFSAGFGAAFLTLHPTMYADLLQKKLAKHGTQCYLINTGWTGGGYGVGKRMSIKATRACVDAVLDGSIGKTTFTPDPVFGFEVPAELPGVPAKVLNPREAWSDKKGYDATRTKLAGMFKDNFTKFVKPGVTDYTSYGPK
# B2: ART1 (Homo sapiens, UniProt P52961); chain QSHPITRRDLFSQEIQLDMALASFDDQYAGCAAAMTAALPDLNHTEFQANQVYADSWTLASSQWQERQARWPEWSLSPTRPSPPPLGFRDEHGVALLAYTANSPLHKEFNAAVREAGRSRAHYLHHFSFKTLHFLLTEALQLLGSGQRPPRCHQVFRGVHGLRFRPAGPRATVRLGGFASASLKHVAAQQFGEDTFFGIWTCLGAPIKGYSFFPGEEEVLIPPFETFQVINASRLAQGPARIYLRALGKHSTYNCEYIKDKKCKSGPCHLDNS
# B3: enzyme S252E (Schizosaccharomyces pombe, UniProt P78804); chain MSTPYEPEFQQAYKEIVGSIESSKLFEVHPELKRVLPIISIPERVLEFRVTWEDDKGNCRVNTGYRVQFNSALGPYKGGLRFHPSVNLSILKFLGFEQIFKNALTGLPMGGGKGGSDFDPKGKSDNEIRRFSQAFMRQLFRYIGPQTDVPAGDIGVTGFVVMHMFGEYKRLRNEYSGVVTGKHMLTGGSNIRPEATGYGVVYYVKHMIEHRTKGAETLKGKRVAISGSGNVAQYAALKCIQEGAIVKSISDEKGVLIAKTAEGLVPEEIHEIMALKEKRASIADSASLCKKHHYIAGARPWTNVGEIDIALPCATQNEVSGEEAAALIKQGCRYVAEGSNMGSSAEAVEVFEKSRASGEGCWLAPGKAANAGGVAVSGLEMAQNAQFSTWTHAEVDAKLAGIMQNIFEQSTDVASKYCDSGSNNIPSLVDGANIAGFLKVATAMQAVGDWW
# B4: enzyme (Mus musculus, UniProt P60334); chain MERTELLKPRTLADLIRILHELFAGDEVNVEEVQAVLEAYESNPAEWALYAKFDQYRYTRNLVDQGNGKFNLMILCWGEGHGSSIHDHTDSHCFLKLLQGNLKETLFDWPDKKSNEMIKKSERTLRENQCAYINDSIGLHRVENVSHTEPAVSLHLYSPPFDTCHAFDQRTGHKNKVTMTFHSKFGIRTPFTTSGSLENN
# B5: enzyme (Plasmodium falciparum, UniProt C0H484); chain MVREAHELLDGSRPIPIDKITYELSQNIILAFDNHENINNKDIQIEIEGRVGLVIDKNKNRIKLPINTDAIIENNYSDFQAGIDRESFEYLLDYFHNMTLKKRLSIRNNDNNNNNMDNNNNNMDNNNNIHIHNSGNNTNQTHSYDKNADDNKPTCNYSYDKKNACIYDFLELKTTKSIDKYYVIKNNNSRIRTTTYLNDDNKQETESMMIQSLQKDNLNIWNVYTGNNYDYFDDDEEDDDDDYNNNNNNNNGDTGTKTNIATNNTHGLTTSKSQHIYNNLVDKNDSIDYRISINIEYTKPISKLYLSKNTPVHERLKERTTFINTYLGLQVDMTKIKTKNNELYEVEIEIPSKTIFKAMSNLRNKKDSNYLHFICSNLVNNIRGICSQLNVFKKSKHMLKNTMITKLNNNSNNQNNLSLLPNHPNDDTISSKEKEKFKKYIHSVLPIVGDY
# B6: Por W677A (Rattus norvegicus, UniProt P00388); chain GDSHEDTSATMPEAVAEEVSLFSTTDMVLFSLIVGVLTYWFIFRKKKEEIPEFSKIQTTAPPVKESSFVEKMKKTGRNIIVFYGSQTGTAEEFANRLSKDAHRYGMRGMSADPEEYDLADLSSLPEIDKSLVVFCMATYGEGDPTDNAQDFYDWLQETDVDLTGVKFAVFGLGNKTYEHFNAMGKYVDQRLEQLGAQRIFELGLGDDDGNLEEDFITWREQFWPAVCEFFGVEATGEESSIRQYELVVHEDMDVAKVYTGEMGRLKSYENQKPPFDAKNPFLAAVTANRKLNQGTERHLMHLELDISDSKIRYESGDHVAVYPANDSALVNQIGEILGADLDVIMSLNNLDEESNKKHPFPCPTTYRTALTYYLDITNPPRTNVLYELAQYASEPSEQEHLHKMASSSGEGKELYLSWVVEARRHILAILQDYPSLRPPIDHLCELLPRLQARYYSIASSSKVHPNSVHICAVAVEYEAKSGRVNKGVATSWLRAKEPAGENGGRALVPMFVRKSQFRLPFKSTTPVIMVGPGTGIAPFMGFIQERAWLREQGKEVGETLLYYGCRRSDEDYLYREELARFHKDGALTQLNVAFSREQAHKVYVQHLLKRDREHLWKLIHEGGAHIYVCGDARNMAKDVQNTFYDIVAEFGPMEHTQAVDYVKKLMTKGRYSLDVAS
Substance,tested on,test,system,conditions,how to read,endpoint,result
"enzyme (Castanea crenata, UniProt P82859)",CCCCCCCCCCCCCCCC(=O)Oc1ccc([N+](=O)[O-])cc1,steady-state kinetics,,"pH 8, 35 °C",,Km,110 µM
LTSTVQLIMQ,"HLA class I histocompatibility antigen, A alpha chain allele A*01:01",conformational ELISA,peptide,concentration not given,"baseline: positive control peptide, direction not given",binding score,1.1%
B1 (enzyme),Nc1ncnc2c1ncn2[C@@H]1O[C@H](COP(=O)(O)OP(=O)(O)O)[C@@H](O)[C@H]1O,steady-state kinetics,,"pH 5.5, 25 °C, together with: 16 mM PEP",,Km,130 µM
colistin,Acinetobacter baumannii,broth microdilution,clinical isolate RKI-No_11/16,,,MIC,1 µg/mL
"enzyme (Pseudomonas syringae, UniProt Q87XD5)",NC(N)=O,steady-state kinetics,,together with: MgATP,,Km,4900 µM
WVFEHPETL,"HLA class I histocompatibility antigen, A alpha chain, allele A*02:01 (Homo sapiens, UniProt P04439)","peptide-MHC stability, brefeldin A chase","peptide, T2 cells",,,complex half-life,1.58 h
B2 (ART1),COC(=O)[C@H](CCCNC(=N)N)NC(C)=O,steady-state kinetics,,"pH 7.5, 25 °C, HEPES 50 mM, together with: saturating NAD+",,Km,900 µM
ACTCACTCACTC (dsDNA),"Fibroin-modulator-binding protein-1 99-193 (Bombyx mori, UniProt Q5FBS0)",ITC,"double-stranded DNA, one strand shown",,,Kd,2300 ± 286 nM
B3 (enzyme S252E),NC(=O)C1=CN([C@@H]2O[C@H](COP(=O)(O)OP(=O)(O)OC[C@H]3O[C@@H](n4cnc5c(N)ncnc54)[C@H](OP(=O)(O)O)[C@@H]3O)[C@@H](O)[C@H]2O)C=CC1,steady-state kinetics,,"pH 7, 30 °C, apparent",,Km,290 µM
B4 (enzyme),N[C@@H](CS)C(=O)O,steady-state kinetics,,"pH 7.5, 37 °C",,Km,5000 µM
B5 (enzyme),Nc1nc2c(ncn2[C@@H]2O[C@H](COP(=O)(O)OP(=O)(O)OP(=O)(O)O)[C@@H](O)[C@H]2O)c(=O)[nH]1,steady-state kinetics,,together with: Mn2+,,Km,15 µM
B6 (Por W677A),NC(=O)C1=CN([C@@H]2O[C@H](COP(=O)(O)OP(=O)(O)OC[C@H]3O[C@@H](n4cnc5c(N)ncnc54)[C@H](O)[C@@H]3O)[C@@H](O)[C@H]2O)C=CC1,steady-state kinetics,,together with: cytochrome c,,Km,83.5 µM
"enzyme (Staphylococcus aureus, UniProt Q2G294)",CCC(=O)O,steady-state kinetics,,"pH 7, 30 °C, apparent",,Km,2300 µM
LMPFGSLLDY,"HLA class I histocompatibility antigen, A alpha chain allele A*01:01",conformational ELISA,peptide,concentration not given,"baseline: positive control peptide, direction not given",binding score,70.2%
gdh E198G/N97F (Bacillus subtilis),NC(=O)c1ccc[n+]([C@@H]2O[C@H](COP(=O)(O)OP(=O)(O)OC[C@H]3O[C@@H](n4cnc5c(N)ncnc54)[C@H](O)[C@@H]3O)[C@@H](O)[C@H]2O)c1,steady-state kinetics,,"pH 7, 55 °C",,Km,170 µM
